Published values pooled from the literature.
Lines come from different studies, so protocols differ. Numbers after ± are the reported error.
UniProt O75030, sequence (1-296, unmodified, looked up): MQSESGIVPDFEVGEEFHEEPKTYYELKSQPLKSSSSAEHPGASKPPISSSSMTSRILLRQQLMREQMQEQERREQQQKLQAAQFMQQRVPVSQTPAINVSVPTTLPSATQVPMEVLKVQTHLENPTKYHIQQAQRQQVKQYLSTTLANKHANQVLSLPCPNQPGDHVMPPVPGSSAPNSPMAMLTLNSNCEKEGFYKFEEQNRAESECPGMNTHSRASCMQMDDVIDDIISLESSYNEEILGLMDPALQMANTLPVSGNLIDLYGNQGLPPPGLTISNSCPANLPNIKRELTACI
UniProt Q12908, sequence (whole entry, looked up): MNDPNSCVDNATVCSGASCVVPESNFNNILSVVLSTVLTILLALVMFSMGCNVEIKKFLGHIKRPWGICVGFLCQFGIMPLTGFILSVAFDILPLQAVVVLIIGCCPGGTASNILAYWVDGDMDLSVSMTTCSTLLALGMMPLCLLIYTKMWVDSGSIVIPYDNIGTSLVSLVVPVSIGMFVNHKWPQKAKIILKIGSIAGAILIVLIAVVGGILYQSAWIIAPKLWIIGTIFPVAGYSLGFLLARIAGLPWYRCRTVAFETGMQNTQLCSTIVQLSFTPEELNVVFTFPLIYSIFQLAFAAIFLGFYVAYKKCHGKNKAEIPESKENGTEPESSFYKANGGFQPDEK
UniProt Q92731, sequence (whole entry, looked up): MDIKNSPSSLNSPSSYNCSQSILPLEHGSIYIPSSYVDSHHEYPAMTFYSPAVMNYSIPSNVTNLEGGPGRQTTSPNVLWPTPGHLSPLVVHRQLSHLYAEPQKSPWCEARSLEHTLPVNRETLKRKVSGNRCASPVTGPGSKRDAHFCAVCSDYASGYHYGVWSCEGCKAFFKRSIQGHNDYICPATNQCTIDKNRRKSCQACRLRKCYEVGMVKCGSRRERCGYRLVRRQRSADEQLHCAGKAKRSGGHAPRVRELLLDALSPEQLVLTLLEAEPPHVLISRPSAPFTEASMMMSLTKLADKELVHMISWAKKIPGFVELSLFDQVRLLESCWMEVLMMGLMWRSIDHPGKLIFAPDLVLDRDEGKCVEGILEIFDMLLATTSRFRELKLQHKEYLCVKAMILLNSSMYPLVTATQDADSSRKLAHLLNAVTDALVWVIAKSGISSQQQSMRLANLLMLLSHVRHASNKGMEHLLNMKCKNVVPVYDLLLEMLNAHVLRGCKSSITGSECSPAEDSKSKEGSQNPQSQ
UniProt Q29437, sequence (whole entry, looked up): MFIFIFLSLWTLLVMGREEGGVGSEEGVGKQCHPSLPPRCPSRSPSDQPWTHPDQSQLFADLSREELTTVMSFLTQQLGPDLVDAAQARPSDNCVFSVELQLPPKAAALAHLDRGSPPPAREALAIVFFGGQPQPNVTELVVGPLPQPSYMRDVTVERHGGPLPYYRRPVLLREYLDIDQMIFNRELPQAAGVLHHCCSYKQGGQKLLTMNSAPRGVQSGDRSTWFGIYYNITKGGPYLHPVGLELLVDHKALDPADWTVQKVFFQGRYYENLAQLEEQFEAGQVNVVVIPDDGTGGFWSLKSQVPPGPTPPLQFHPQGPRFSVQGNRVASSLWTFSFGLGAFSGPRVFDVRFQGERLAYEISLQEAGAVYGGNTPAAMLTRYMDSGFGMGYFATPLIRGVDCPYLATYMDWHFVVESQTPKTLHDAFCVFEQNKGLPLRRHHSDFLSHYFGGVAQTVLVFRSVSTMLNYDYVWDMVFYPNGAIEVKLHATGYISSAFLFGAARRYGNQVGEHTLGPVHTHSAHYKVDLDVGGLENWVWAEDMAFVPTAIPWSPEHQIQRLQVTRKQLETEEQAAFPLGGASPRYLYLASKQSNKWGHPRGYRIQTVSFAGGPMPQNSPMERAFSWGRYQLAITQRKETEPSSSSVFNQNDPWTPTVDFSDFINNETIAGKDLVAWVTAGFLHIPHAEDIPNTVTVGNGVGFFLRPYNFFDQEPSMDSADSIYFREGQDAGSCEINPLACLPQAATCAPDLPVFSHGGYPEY
UniProt Q16581, sequence (whole entry, looked up): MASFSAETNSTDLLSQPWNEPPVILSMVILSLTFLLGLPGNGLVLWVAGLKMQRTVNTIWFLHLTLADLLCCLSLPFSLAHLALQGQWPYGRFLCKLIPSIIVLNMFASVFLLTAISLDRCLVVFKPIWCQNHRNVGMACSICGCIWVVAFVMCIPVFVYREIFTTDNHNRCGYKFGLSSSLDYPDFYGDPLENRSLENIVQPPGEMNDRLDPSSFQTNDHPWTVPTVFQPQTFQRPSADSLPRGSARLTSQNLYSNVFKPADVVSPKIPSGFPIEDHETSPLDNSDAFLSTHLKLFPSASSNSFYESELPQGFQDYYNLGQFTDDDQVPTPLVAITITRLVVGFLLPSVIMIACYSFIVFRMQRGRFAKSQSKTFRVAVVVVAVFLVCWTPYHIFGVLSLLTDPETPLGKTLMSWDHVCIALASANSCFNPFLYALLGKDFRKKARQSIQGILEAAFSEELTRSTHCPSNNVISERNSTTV
UniProt P03372, sequence (whole entry, looked up): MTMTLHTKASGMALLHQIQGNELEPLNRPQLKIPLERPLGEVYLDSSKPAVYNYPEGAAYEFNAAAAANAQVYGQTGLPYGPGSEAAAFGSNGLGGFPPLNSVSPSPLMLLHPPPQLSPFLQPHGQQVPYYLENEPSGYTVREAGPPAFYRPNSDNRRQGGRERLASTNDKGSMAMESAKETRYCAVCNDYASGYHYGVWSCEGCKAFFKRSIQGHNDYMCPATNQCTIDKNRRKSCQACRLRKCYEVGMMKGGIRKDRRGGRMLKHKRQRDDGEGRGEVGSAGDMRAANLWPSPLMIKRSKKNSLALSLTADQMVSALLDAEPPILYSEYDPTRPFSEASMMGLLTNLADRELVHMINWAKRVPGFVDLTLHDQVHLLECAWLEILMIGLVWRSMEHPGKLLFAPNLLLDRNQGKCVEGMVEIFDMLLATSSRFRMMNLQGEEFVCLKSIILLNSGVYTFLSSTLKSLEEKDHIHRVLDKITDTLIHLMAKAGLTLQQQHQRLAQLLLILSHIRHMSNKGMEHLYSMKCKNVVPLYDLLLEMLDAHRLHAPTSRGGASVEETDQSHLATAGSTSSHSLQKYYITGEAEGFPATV
UniProt O14744, sequence (whole entry, looked up): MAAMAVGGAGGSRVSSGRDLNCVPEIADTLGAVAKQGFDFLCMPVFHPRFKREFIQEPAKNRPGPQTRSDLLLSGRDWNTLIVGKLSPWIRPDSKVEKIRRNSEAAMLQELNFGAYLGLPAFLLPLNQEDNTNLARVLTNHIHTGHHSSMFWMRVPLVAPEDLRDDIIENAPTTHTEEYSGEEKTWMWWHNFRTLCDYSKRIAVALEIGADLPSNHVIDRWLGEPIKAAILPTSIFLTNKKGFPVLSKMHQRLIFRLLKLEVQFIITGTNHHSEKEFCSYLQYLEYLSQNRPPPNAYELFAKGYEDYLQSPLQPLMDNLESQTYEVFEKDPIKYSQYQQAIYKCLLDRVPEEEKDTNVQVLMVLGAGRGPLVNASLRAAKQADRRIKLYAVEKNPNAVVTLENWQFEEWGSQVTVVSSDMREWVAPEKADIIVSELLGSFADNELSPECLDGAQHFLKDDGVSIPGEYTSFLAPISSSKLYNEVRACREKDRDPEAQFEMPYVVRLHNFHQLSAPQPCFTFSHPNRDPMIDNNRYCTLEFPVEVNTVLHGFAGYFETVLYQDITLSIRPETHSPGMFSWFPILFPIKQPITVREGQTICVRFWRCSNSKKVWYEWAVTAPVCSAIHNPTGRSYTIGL
UniProt P16442, sequence (whole entry, unmodified, looked up): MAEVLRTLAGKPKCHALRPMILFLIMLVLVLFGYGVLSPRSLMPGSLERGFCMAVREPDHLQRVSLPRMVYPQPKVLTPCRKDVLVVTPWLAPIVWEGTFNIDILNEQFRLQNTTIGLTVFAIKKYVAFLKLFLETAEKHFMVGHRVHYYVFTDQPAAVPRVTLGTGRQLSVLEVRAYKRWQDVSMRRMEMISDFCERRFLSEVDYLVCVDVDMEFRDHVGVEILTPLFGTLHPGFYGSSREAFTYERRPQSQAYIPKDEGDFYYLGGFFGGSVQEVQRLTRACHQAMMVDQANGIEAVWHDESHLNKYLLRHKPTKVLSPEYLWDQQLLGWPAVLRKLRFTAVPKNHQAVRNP
UniProt P56817, sequence (whole entry, unmodified, looked up): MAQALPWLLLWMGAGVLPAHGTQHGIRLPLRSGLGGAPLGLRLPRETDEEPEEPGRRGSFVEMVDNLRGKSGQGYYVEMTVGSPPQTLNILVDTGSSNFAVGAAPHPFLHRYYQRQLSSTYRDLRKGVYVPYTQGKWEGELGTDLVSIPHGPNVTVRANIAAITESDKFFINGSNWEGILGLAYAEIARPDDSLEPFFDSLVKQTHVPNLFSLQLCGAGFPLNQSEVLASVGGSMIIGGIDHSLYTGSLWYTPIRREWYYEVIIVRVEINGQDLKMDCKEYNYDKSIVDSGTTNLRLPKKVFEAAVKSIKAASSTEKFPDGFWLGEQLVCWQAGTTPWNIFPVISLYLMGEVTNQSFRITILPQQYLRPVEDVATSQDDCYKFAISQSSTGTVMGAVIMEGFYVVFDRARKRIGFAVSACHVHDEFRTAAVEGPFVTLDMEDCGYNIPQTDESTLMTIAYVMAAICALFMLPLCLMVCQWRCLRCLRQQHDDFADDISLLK

`CCC(=C(c1ccc(Cl)cc1)c1ccc(OCCN2CCOCC2)cc1)c1ccc(OC)cc1` — result for “β-galactosidase activity fold”: 6.46 (Estrogen receptor (ESR1, Homo sapiens, UniProt P03372); reporter gene, agonist, yeast estrogen screen; 1 µM; relative to: DMSO).
For `C[N+](C)(C)CCCOc1ccc2cc(CN)ccc2c1`, the Km was 125 ± 9.6 nM (Primary amine oxidase, liver isozyme (Bos taurus, UniProt Q29437); substrate, fluorescence; pH 7.2, 30 °C).
With `C/C(=N\OCCCN1CCOCC1)c1ccc(C(F)(F)F)cc1` the Ki ratio was 1.32 (rat sigma-1 receptor; binding; together with: phenytoin 250 µM; relative to: without over with phenytoin).
`O=C1CCC(N2C(=O)c3ccc(N4CCC(C(=O)N5CCC(CCN6CCC(CNC(=O)c7cccc(-c8noc(C(F)(F)F)n8)c7)(c7nc(-c8ccccc8)cs7)CC6)CC5)CC4)cc3C2=O)C(=O)N1` (stereo not shown) has a maximum degradation of over 90% (HDAC7 (Homo sapiens, UniProt Q8WUI4); degrader, western blot; DHL6; 3 µM, 12 h).
The ΔG of `COc1cc(C2CC(=O)Nc3nc(N)[nH]c(=O)c32)ccc1O` (stereo not shown) is reported as -7.65 kcal/mol (uncharacterized protein (Leishmania donovani, UniProt A0A3Q8IA09); competitive ITC; together with: glutamate 60 µM).
`CNS(=O)(=O)N1Cc2c(-c3ccc(C(=O)N4CCCc5ccccc54)cc3)cnn2C[C@H]1Cc1ccccc1`: activity “inactive” (PRKN/UBB (Homo sapiens, UniProt O60260+P0CG47); not specified; concentration not given).
`Cc1cc2nc(C(=O)O)c(=O)[nH]c2cc1C` — result for binding: “binds” (Beta-secretase 1 (BACE1, Homo sapiens, UniProt P56817, D93N); binder, surface plasmon resonance; concentration not given, D32N catalytic-site mutant).
`C[C@H](CCC(=O)N[C@@H](CCC(=O)Nc1ccc(F)nc1)C(=O)O)[C@H]1CC[C@H]2[C@@H]3[C@H](O)C[C@@H]4C[C@H](O)CC[C@]4(C)[C@H]3CC[C@]12C` has a Jmax of 0.307 (SLC10A2 (Homo sapiens, UniProt Q12908); transport, substrate; ASBT-MDCK cells; unit not given; relative to: taurocholate Jmax).
For `Cc1cc(C#CC2(O)CCCCC2)cc2c1cc(C(=O)O)n2-c1cccc(Cl)c1`, the ΔH was -42.1 ± 6.1 kJ/mol (Microphthalmia-associated transcription factor, residues 1-296 (Homo sapiens, UniProt O75030); binding, isothermal titration calorimetry; 25 °C).
For `CC(C)C[C@H](NC(=O)CNC(=O)[C@H](CC(C)C)NC(=O)[C@H](CCCCN)NC(=O)[C@H](CO)NC(=O)[C@H](C)NC(=O)[C@H](CCCNC(=N)N)NC(=O)[C@H](Cc1ccc(O)cc1)NC(=O)[C@H](CCCCN)NC(=O)[C@H](CCCCN)NC(=O)CNC(=O)[C@H](Cc1c[nH]c2ccccc12)NC(=O)[C@@H](N)Cc1c[nH]c2ccccc12)C(=O)N[C@@H](C)C(=O)N[C@@H](CCCNC(=N)N)C(=O)O`, the Emax was 55 to 65% (C3AR1 (Homo sapiens, UniProt Q16581); β-arrestin 1/2 recruitment, agonist, NanoBiT; relative to: C3a maximum).
The koff of `CCCCCCCCO[C@@H]1O[C@H](CO)[C@H](O)[C@H](O[C@H]2O[C@H](CO)[C@H](O)[C@H](O)[C@H]2O)[C@H]1O[C@@H]1O[C@@H](C)[C@@H](O)[C@@H](O)[C@@H]1O` is reported as 2900 ± 100 s⁻¹ (ABO (Homo sapiens, UniProt P16442, G235S/G268A/L266M/R176G); methyl-TROSY NMR titration lineshape analysis; apo enzyme).
`CC/C(=C(\c1ccc(O)cc1)c1ccc(OCCN(C)CCOCCOCCOCCOCCOCCOCCOCCN(C)CCOc2ccc(/C(=C(/CC)c3ccccc3)c3ccc(O)cc3)cc2)cc1)c1ccccc1` — result for “relative binding affinity”: 20.7% (ESR2 (Homo sapiens, UniProt Q92731); radioligand competition binding; concentration not given, Z-Z/Z isomer form, together with: [3H]estradiol tracer; relative to: estradiol).
`Nc1nc2cnc(C(=O)N3CCOC[C@@H]3c3ccc(C(F)(F)F)cc3)cc2c2c1COC2` has a koff of 7.78e-06 s⁻¹ (Protein arginine N-methyltransferase 5, MTA-bound (PRMT5, Homo sapiens, UniProt O14744); SPR).

Some of these lines once more:
`Cc1cc2nc(C(=O)O)c(=O)[nH]c2cc1C` — result for binding: “binds” (Beta-secretase 1 (BACE1, Homo sapiens, UniProt P56817, D93N); binder, surface plasmon resonance; concentration not given, D32N catalytic-site mutant).
`C[C@H](CCC(=O)N[C@@H](CCC(=O)Nc1ccc(F)nc1)C(=O)O)[C@H]1CC[C@H]2[C@@H]3[C@H](O)C[C@@H]4C[C@H](O)CC[C@]4(C)[C@H]3CC[C@]12C` has a Jmax of 0.307 (SLC10A2 (Homo sapiens, UniProt Q12908); transport, substrate; ASBT-MDCK cells; unit not given; relative to: taurocholate Jmax).
